Measurements pooled from the literature.
Numbered parts are unrelated; each lists some results of a single study. Values joined by “and” are separate records of one study, mostly repeats; a detail may differ. Positions count from the first letter of the parent shown.
Chain of UniProt Q14680 (whole entry, looked up): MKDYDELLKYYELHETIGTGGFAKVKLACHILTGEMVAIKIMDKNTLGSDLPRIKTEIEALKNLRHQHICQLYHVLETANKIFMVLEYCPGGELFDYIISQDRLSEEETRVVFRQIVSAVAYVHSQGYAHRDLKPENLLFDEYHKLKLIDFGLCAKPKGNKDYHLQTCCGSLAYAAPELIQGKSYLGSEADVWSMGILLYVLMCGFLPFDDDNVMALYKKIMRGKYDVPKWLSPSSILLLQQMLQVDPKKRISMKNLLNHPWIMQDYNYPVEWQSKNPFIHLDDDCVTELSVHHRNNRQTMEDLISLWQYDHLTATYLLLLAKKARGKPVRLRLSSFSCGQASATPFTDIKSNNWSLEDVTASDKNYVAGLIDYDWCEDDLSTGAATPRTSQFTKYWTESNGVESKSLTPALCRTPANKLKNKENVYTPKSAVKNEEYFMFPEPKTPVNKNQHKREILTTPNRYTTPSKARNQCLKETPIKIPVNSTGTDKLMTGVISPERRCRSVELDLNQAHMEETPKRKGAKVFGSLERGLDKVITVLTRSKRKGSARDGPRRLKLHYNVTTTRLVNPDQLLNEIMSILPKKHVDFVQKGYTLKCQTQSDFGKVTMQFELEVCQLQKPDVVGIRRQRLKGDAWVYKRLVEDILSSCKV

Sample 1
Target: Interferon regulatory factor 1, DNA-binding domain (IRF1, Homo sapiens, UniProt P10914, residues 1-114)
Technique: protein-binding microarray
Form: hairpin DNA
Medium: in vitro
Tested at: not given
Notes: whole hairpin DNA, median over replicate spots
Relative to: not given
Direction: higher = stronger binding
Measurement: median fluorescence
Constant ends, left off below: GAGGCCCG … CGGGCCTCACAC
Residues (chain): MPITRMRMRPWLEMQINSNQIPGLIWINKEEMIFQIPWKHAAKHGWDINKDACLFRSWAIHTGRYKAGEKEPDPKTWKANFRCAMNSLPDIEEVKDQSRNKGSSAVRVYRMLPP
Sequence = AAAGCGAAACGCCTCCTGGCGTTTCGCTTT (5mC at 7 33 39); result = 880 a.u.
Sequence = AAAGTCGAACGCCTCCTGGCGTTCGACTTT (5mC at 14 32); result = 519 a.u.
Sequence = AACGCGAAACGCCTCCTGGCGTTTCGCGTT; result = 572 a.u.
Sequence = AAAGTGCAACGCCTCCTGGCGTTGCACTTT (5mC at 15); result = 538 a.u.
Sequence = AAAGCGAAAAGCCTCCTGGCTTTTCGCTTT; result = 830 a.u.
Sequence = AACGTGAAACGCCTCCTGGCGTTTCACGTT (5mC at 11 35); result = 490 a.u.
Sequence = GAAGCGAAACGCCTCCTGGCGTTTCGCTTC (5mC at 38); result = 592 a.u.
Sequence = ATAGTGAAACGCCTCCTGGCGTTTCACTAT; result = 684 a.u.

Sample 2
Target: ABI1, truncated, D143A, DHFR fusion (Arabidopsis thaliana, UniProt P49597)
Technique: DHFR PCA, dose-response
Medium: yeast
Notes: Hill fit, mean, not affinity
Added: (+)-ABA, dose series
Direction: lower = more sensitive
Measurement: ABA EC50
Starting sequence: PYL1, truncated, DHFR fusion (Arabidopsis thaliana, UniProt Q8VZS8); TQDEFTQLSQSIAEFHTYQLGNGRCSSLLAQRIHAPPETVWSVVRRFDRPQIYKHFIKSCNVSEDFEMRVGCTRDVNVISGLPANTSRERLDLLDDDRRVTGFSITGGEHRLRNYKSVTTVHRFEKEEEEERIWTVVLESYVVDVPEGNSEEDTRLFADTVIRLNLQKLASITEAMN
Variant = I52G; result = 10.1 µM
Variant = T101Q; result = 92 µM
Variant = G23T; result = 11.1 µM
Variant = G23A; result = 7.65 µM
Variant = E128Y; result = 3.71 µM
Variant = E109M; result = 13.5 µM
Variant = N61V; result = 2.83 µM
Variant = M176E; result = 3.57 µM

Further values, each from its own experiment
Compound = Ic1ccc(Nc2nc(NCCN3CCOCC3)nc(N3CCOCC3)n2)cc1; target or system = Gaucher fibroblasts; test = qPCR, refers to: GBA1 mRNA; setting = 1 µM, unit not given; scale = relative to: vehicle; measurement = mRNA level; result = 0.823 and 0.722 and 1.01 and 0.544 and 1.13
Compound = N#Cc1c(NC(=O)c2cccc3ccccc23)sc2c1CCCC2; target or system = MELK (Homo sapiens, UniProt Q14680); test = enzyme activity, inhibitor; setting = 0.5 µM; scale = relative to: control; measurement = remaining activity; result = 83.3%

A few entries again (sample 2):
Variant = T101Q; result = 92 µM
Variant = G23T; result = 11.1 µM
Variant = G23A; result = 7.65 µM
